Published values gathered from unrelated publications.
Parts stem from different laboratories: compare values within a part only. Changes are numbered by the printed parent chain.

Block 1 — technique: protein-binding microarray; molecule type: double-stranded DNA, one strand shown; medium: in vitro; tested at: 250 nM; notes: 60-bp whole probe; added: salmon DNA 0.4 mg/ml; reference: random background probes; reading: higher = stronger binding; endpoint: log fluorescence; constant ends, left off below: GCCTAGCAC … GTCTTGATTCGCTTGACGCTGCTG
Target: Interferon regulatory factor 7, full length, phosphomimetic (IRF7, Homo sapiens, UniProt Q92985, residues 1-503, S101K/S471D/S472D/S475D/S476D/S477D/S483D/S484D/S487D)
Residues (chain): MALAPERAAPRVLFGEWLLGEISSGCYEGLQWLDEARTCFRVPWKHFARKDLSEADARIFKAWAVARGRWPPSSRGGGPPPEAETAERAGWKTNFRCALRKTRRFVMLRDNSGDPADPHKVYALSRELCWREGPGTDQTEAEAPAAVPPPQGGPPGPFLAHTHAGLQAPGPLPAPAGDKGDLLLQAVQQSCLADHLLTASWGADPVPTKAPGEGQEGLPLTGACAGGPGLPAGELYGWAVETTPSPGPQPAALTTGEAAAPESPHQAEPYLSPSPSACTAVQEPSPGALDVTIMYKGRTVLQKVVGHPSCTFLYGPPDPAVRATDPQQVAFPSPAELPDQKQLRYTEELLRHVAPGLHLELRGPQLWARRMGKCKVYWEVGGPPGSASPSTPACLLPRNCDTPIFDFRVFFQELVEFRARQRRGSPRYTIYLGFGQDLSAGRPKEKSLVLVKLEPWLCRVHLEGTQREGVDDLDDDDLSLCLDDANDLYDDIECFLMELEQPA
GACTGACTGCTTCTCCTGACGTGCTAG: -0.243 z-score
TGTGATCTCATATGAAAACAGTGCTAG: 0.535 z-score
TTAGGTATCGGGTATCGGTTGGTGCTA: 1.44 z-score
GTAGAACTGGGGTATCGATTAGTGCTA: -0.204 z-score
GATGGACTGCTTCTCCTGACGTGCTAG: -0.0941 z-score
GCCGATCTCAGTTTCGAGACGTGCTAG: 3.62 z-score
GCAGGGTATAGGCATTCCCTGTGCTAG: -0.796 z-score
CTCCCATTATATTTTAATCAGTGCTAG: 0.89 z-score
TTTGATTTCAGTTTCGATTAGTGCTAG: 9.09 z-score
TTAGGACCGGACACTGGGTTAGTGCTA: -0.36 z-score
TAAGGTTTCGACACTGGGTTAGTGCTA: 3.85 z-score
TATGGTATGCTCATGACAAAGTGCTAG: -0.242 z-score
TTAGGTATCCTTATCCATTAGTGCTAG: 0.423 z-score
GACGGACTGCTACTGATGACGTGCTAG: -0.799 z-score
TCATGTTTTCATTTTATACTGTGCTAG: 2.87 z-score
AGGGCGGCTGAGTCAGCACAGTGCTAG: -1.16 z-score
GACGGTATCCTCCTCCTGACGTGCTAG: -0.3 z-score
GACGATATCCTTCTCCTGACGTGCTAG: 0.117 z-score

Block 2 — technique: RNA Bind-n-Seq; molecule type: RNA; medium: in vitro; tested at: 365 nM; reference: no-protein control; reading: higher = stronger binding; endpoint: RBNS enrichment (R)
Target: RNA binding protein fox-1 homolog 2, RRM domain, GST-SBP tag (RBFOX2, Homo sapiens, UniProt O43251-10, residues 100-194)
Notes: natural RNA segment, single round, ends assumed
Constant ends, left off below: GGGAGUUCUACAGUCCGACGAUC … UGGAAUUCUCGGGUGCCAA
Construct (chain): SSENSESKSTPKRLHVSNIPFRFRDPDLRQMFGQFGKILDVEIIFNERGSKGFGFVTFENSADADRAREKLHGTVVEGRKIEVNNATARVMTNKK
UUCUUCUUAAAGAGCUGCUUGGUUAUCCAAAAAUGAAAAUUCAAAAUAAACUCUGAAGAAAAGGAAACUGUCUUUGUGGUCAUUUGAAUUCAUUCUGAGUCAUUAUCUGU: 0.339
UGUGUGUGUGUGCCAGAGUAGCUGCAUUCUGAUUCACUAAUCCCUCAUUUUAAUGUGUGCCUUAUGCCUUGAAUGGACCAGCUGAGAUCACUAUAUUUAUUCAAGCUGUG: 1.35
GCUUUGUCCAGGUGAGAACAUCCAUAAUUUGGGGCCCUGAGUUUUACCCAGACUCAAGGAGUUGGUAAAGGGUUAAUAGCCAGAUAGUAGAACCAGUGAGGAGAUGCGGC: 0.711
UAGAAUAGAAAAUAGAACAUUAUUCAAGUUAAUUGAAAGGUGAGGUUUUUAUACCCCCACUAAUGCUGUGUAUCUGUCUUUCGUUUGUUAACAUUAUUUGCUUAAUUUCU: 0.31
CCUCUUUGAAACACCCCGUGUUGUCCAGUAUACCUUAUAACACUGAGCCACUUCUCCCCACCCUCCAGAAGGGGUCCACGUUGAAUUCUGAAUCAUCUUGAAAAUAAGAU: 0.386
CCUACUCUGGCAUAAUUCAAGUGUCUUCUUGCCUUGGGGAUCCUUAGUGGCAUCAAAUGGCAACAUGGAAUAUUGUCCUCCAUGCCCCUCCAGAAGGACCUAGGAGAGUA: 0.389
AGAUGUUCCGCAAAGGAUGCUGAUCUACCAGGUUUAGCUCAACCUGGAAUAGCUGACUACCCAGGGAGCCACCCAGAUGGGGAAUCCAGCUUCCUUCUUCACCCGCCCCC: 0.239
ACAGAGAGGAUGGGGCUCCCCGAGUAGUGGGAGUUCUUUUGUGGCCUGUGCUGGGGGUAGGGAGCCAACAGCACCCGUUUGUACAUAAAGGUCAUUCGUAUGUCACAUGU: 0.605

Block 3 — target: CCND3, cyclin fold, Cln2 fusion (human); technique: yeast growth competition, sequencing; medium: yeast; notes: weak parent motif; reference: not given; reading: higher = stronger binding; endpoint: normalised enrichment score
Parent: CDC25A docking peptide (human); PPHRRRLLFACSP; partner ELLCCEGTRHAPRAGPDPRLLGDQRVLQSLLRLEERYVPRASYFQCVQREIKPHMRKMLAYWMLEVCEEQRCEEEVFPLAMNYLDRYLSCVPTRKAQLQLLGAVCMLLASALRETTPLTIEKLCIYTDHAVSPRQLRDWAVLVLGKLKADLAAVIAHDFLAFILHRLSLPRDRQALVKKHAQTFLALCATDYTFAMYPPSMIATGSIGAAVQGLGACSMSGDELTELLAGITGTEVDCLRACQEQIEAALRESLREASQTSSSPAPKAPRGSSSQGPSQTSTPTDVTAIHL
PPHRRRLLFTCSP [A10T]: 0.138
PPHRRRVLFACSP [L7V]: 0.149
PPHRRRLLFMCSP [A10M]: 0.15
PPHRRRLLFAVSP [C11V]: 0.171
PYHRRRLLFACSP [P2Y]: 0.141
PPHRRRLLFSCSP [A10S]: 0.105
PPHRRRLLFATSP [C11T]: 0.043
PPHRRRLLFACHP [S12H]: 0.103
PPHRRGLLFACSP [R6G]: 0.0943
PPHRRRLVFACSP [L8V]: 0.157
PPHRRRLLFAHSP [C11H]: 0.11
PPHRRRLFFACSP [L8F]: 0.156
PPHRRRLLFYCSP [A10Y]: 0.0773
PPHRRRLLFACIP [S12I]: 0.14
PPHRRRLLFASSP [C11S]: 0.129
PPHRRRLLFAESP [C11E]: 0.076
CPHRRRLLFACSP [P1C]: 0.059
PPCRRRLLFACSP [H3C]: 0.159
PMHRRRLLFACSP [P2M]: 0.118
PPHRRPLLFACSP [R6P]: 0.0704
PPHFRRLLFACSP [R4F]: 0.139
PPHRRRLLFACSG [P13G]: 0.145
PPHRRRLLFACMP [S12M]: 0.114
PPHWRRLLFACSP [R4W]: 0.145
PPHRRRLLMACSP [F9M]: 0.136

Block 4 — technique: DHFR PCA, deep sequencing; medium: yeast; added: (+)-ABA 17 µM; reference: wild-type fitted maximum; reading: higher = stronger binding; endpoint: relative binding score
Target: ABI1, truncated, D143A, DHFR fusion (Arabidopsis thaliana)
Notes: methotrexate growth selection, single substitutions
Parent: PYL1, truncated, DHFR fusion (Arabidopsis thaliana); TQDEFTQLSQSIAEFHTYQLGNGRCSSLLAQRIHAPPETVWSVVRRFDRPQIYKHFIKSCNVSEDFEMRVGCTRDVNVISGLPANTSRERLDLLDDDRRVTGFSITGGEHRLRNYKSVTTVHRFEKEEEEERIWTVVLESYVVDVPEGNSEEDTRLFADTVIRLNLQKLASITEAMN
L138V: 51.8%
Q10I: 52%
Q51H: 83.5%
D48V: -4.83%
E14H: 56.4%
L29G: -7.6%
L164C: 84.4%
D96Q: 12.5%
K126C: 94.8%
S171C: 82.2%
A84R: -3.13%
V143R: -3.9%
Y53T: 1.44%
E64V: 73.2%
R123M: 77.9%
D65A: 75.2%
T101F: 98.7%

A few entries again (block 3):
PPHRRRLLFACSG [P13G]: 0.145
PPHRRRVLFACSP [L7V]: 0.149
PPHRRRLLFMCSP [A10M]: 0.15
PPCRRRLLFACSP [H3C]: 0.159
